Measured values from different studies.
Each line is one published result; not all experiments were run side by side. Numbers after ± are the reported error. ≈ marks a conversion by molar mass, not a printed value.
Organism: Pseudomonas aeruginosa

SMILES | assay | system | setting | scale | measurement | value
CC1(C)S[C@@H]2[C@H](NC(=O)[C@H](N)c3ccccc3)C(=O)N2[C@H]1C(=O)O |  | fptA mutant |  |  | MIC | > 200 µg/mL
COc1cccc(C(=O)C#Cc2ccc(O)c(OC)c2)c1 |  |  | 10 µM, 24 h | relative to: untreated | pyocyanin production | 56%
Nc1nc2ccc([S+]([O-])c3ccncc3)cc2s1 (centres unmarked) | swarming area, modified FAB agar | PA14-lux | 200 µM, 24 h | relative to: DMSO vehicle | inhibition | 27.1%
COc1cc2oc([N+](=O)[O-])cc2c2ccccc12 | REMA |  |  |  | MIC90 | > 32 µg/mL
Cn1cc([S+]([O-])c2ccc3nc(N)sc3c2)cn1 (centres unmarked) | pyocyanin production | PA14-lux | 200 µM, 18 h | relative to: DMSO vehicle | inhibition | 5.24%
CC(C)CC1NC(=O)C(C(=O)NC(C(=O)NC2C(=O)N3C2SC(C)(C)C3C(=O)O)c2ccccc2)=C1O (centres unmarked) |  | pvcA mutant |  |  | MIC | 25 µg/mL (≈ 47.1 µM)
CC(N)C(O)CCCCCCCCCCCCCCC(=O)CCCCCCCC(O)C(C)N (centres unmarked) | resazurin | ATCC 27853 | 50 µM |  | growth inhibition | -4%
CC(C)(C)OCC1NC(=O)C(C(=O)NC(C(=O)NC2C(=O)N3C2SC(C)(C)C3C(=O)O)c2ccccc2)=C1O (centres unmarked) |  | fptA mutant |  |  | MIC | 25 µg/mL (≈ 44.6 µM)
COc1cc(C#CC(=O)c2ccccc2OC)ccc1O |  |  | 10 µM, 24 h | relative to: untreated | rhamnolipid production | 31%
Nc1nc2ccc(Oc3cccnc3)cc2s1 | pyocyanin production | PA14-lux | 200 µM, 18 h | relative to: DMSO vehicle | inhibition | 18%
COc1ccc2c(ccc3oc([N+](=O)[O-])c(C)c32)c1 | REMA |  |  |  | MIC90 | > 32 µg/mL
O=C(C#Cc1ccc(F)c(F)c1)c1ccccc1Cl |  |  | 10 µM, 24 h | relative to: untreated | rhamnolipid production | 30%
CC[C@H](C)[C@H](NC(=O)[C@H](Cc1ccc(O)cc1)NC(=O)[C@@H](NC(=O)[C@H](Cc1c[nH]c2ccccc12)NC(=O)[C@@H]1CCCN1C(=O)[C@@H](NC(=O)[C@H](C)N)[C@@H](C)CC)[C@@H](C)CC)C(=O)N[C@@H](Cc1ccc(O)cc1)C(=O)N[C@@H](CCCNC(=N)N)C(=O)N[C@@H](CC(C)C)C(=O)N[C@@H](CC(C)C)C(=O)N[C@@H](CCCNC(=N)N)C(=O)N[C@@H](CCCCN)C(=O)NCC(=O)O |  | PAO1 | 18 h, 37 °C |  | MBC | 15 µM
CC[C@H](C)[C@H](NC(=O)[C@H](C)NC(=O)[C@H](CCCCN)NC(=O)[C@H](CC(C)C)NC(=O)[C@H](C)NC(=O)[C@@H](NC(=O)[C@H](Cc1c[nH]cn1)NC(=O)[C@H](CC(C)C)NC(=O)[C@@H](NC(=O)[C@@H](NC(=O)[C@H](CCCCN)NC(=O)[C@H](C)NC(=O)[C@H](C)NC(=O)[C@H](CO)NC(=O)[C@H](CCCCN)NC(=O)[C@H](Cc1ccccc1)NC(=O)[C@@H](NC(=O)[C@H](CCCCN)NC(=O)[C@H](CC(C)C)NC(=O)[C@H](Cc1ccccc1)NC(=O)[C@H](CO)NC(=O)[C@H](CCCCN)NC(=O)[C@H](Cc1c[nH]c2ccccc12)NC(=O)[C@H](CCCCN)NC(C)=O)[C@@H](C)O)[C@@H](C)O)C(C)C)[C@@H](C)O)C(=O)N[C@@H](CO)C(=O)N[C@@H](CO)C(N)=O |  |  | 43 strains |  | MIC50 | 8 µg/mL (≈ 2.73 µM)
CC[C@H](C)[C@H](NC(=O)[C@H](CC(N)=O)NC(=O)[C@H](CCCCN)NC(=O)[C@H](CC(=O)O)NC(=O)[C@H](Cc1ccc(O)cc1)NC(=O)[C@H](Cc1ccc(O)cc1)NC(=O)[C@H](Cc1ccc(O)cc1)NC(=O)[C@H](CCCNC(=N)N)NC(=O)[C@H](CC(C)C)NC(=O)CNC(=O)[C@H](CCCNC(=N)N)NC(=O)[C@@H](N)CO)C(=O)N[C@H](C(=O)N[C@@H](Cc1c[nH]cn1)C(=O)N[C@@H](CCCCN)C(=O)N[C@H](C(=O)N[C@@H](C)C(=O)NCC(=O)N[C@@H](CCCCN)C(=O)N[C@@H](CCCNC(=N)N)C(=O)N[C@@H](Cc1ccc(O)cc1)C(=O)N[C@H](C(=O)N[C@@H](Cc1ccc(O)cc1)C(=O)N[C@@H](CCCNC(=N)N)C(=O)N[C@@H](Cc1ccccc1)C(=O)N[C@H](C(=O)O)C(C)C)C(C)C)[C@@H](C)O)[C@@H](C)CC |  |  |  |  | MBC | 64 µg/mL
CNC(C)C1CCC(N)C(OC2C(N)CC(N)C(OC3OCC(C)(O)C(NC)C3O)C2O)O1 (centres unmarked) | broth microdilution |  |  |  | MLC | 4 ± 1 µg/mL (≈ 8.38 µM)
O=C(C#Cc1ccc(F)c(F)c1)c1cccc(Cl)c1 |  |  | 10 µM, 24 h | relative to: untreated | pyocyanin production | 49%
N=C(N)NCCC[C@H](NC(=O)[C@H](Cc1c[nH]c2ccccc12)NC(=O)[C@@H](N)CCCNC(=N)N)C(=O)N[C@@H](Cc1c[nH]c2ccccc12)C(=O)N[C@@H](Cc1ccccc1)C(=O)N[C@@H](CCC(N)=O)C(=O)N[C@@H](Cc1ccccc1)C(=O)N[C@@H](CCC(N)=O)C(=O)N[C@@H](Cc1ccccc1)C(=O)N[C@@H](CCCCN)C(N)=O |  |  |  |  | MBC | 570 µM
COc1cc(C#CC(=O)CC(C)C)ccc1O |  |  | 10 µM, 24 h | relative to: untreated | rhamnolipid production | 32%

SMILES | assay | system | setting | scale | measurement | value
CC1(C)SC2C(NC(=O)C(NC(=O)C3=C(O)C4CCCN4C3=O)c3ccccc3)C(=O)N2C1C(=O)O (centres unmarked) | broth microdilution | TonB-dependent receptor mutant | PA two-allele library |  | MIC | 25 µg/mL (≈ 48.6 µM)
NC(=O)COc1ccc2nc(N)sc2c1 | swarming area, modified FAB agar | PA14-lux | 200 µM, 24 h | relative to: DMSO vehicle | inhibition | 4.2%
CC(C)C[C@H](NC(=O)[C@H](CCN)NC(=O)[C@H](CCN)NC(=O)[C@@H](Cc1ccccc1)NC(=O)[C@H](CC(C)C)NC(=O)[C@H](CCN)NC(=O)[C@H](CCN)NC(=O)[C@@H](CCN)NC(=O)[C@@H](N)CSCCOC(=O)C(C)(C)C)C(N)=O |  | PAO1 | 24 h, 37 °C |  | MBC | > 128 µM
Cn1c(=O)ccc2ccc(F)c(CCNC[C@H]3CN(c4cnc5c(n4)NC(=O)CO5)C(=O)O3)c21 |  |  |  |  | MIC50 | 0.5 µg/mL (≈ 1.07 µM)
COc1ccccc1C(=O)C#Cc1ccc(F)c(F)c1 |  |  | 10 µM, 24 h | relative to: untreated | exoprotease production | 85%
CNC(=O)COc1ccc2nc(N)sc2c1 | pyocyanin production | PA14-lux | 200 µM, 18 h | relative to: DMSO vehicle | inhibition | 13.9%
COc1cccc(C(=O)C#Cc2ccc(F)c(F)c2)c1 |  |  | 10 µM, 24 h | relative to: untreated | pyocyanin production | 42%
O=C(O)c1cccc(C(=O)O)n1 |  | IMP-7 producer | 32 µg/mL, with: meropenem | relative to: meropenem alone | fold MIC reduction | 4
Nc1nc2ccc(CN3CCNC3=O)cc2s1 | pyocyanin production | PA14-lux | 200 µM, 18 h | relative to: DMSO vehicle | inhibition | 14%
CCCCc1c([N+](=O)[O-])oc2ccc3ccccc3c12 | REMA |  |  |  | MIC90 | > 32 µg/mL
Nc1ccc(S(=O)(=O)c2ccc3nc(N)sc3c2)cn1 | pyocyanin production | PA14-lux | 200 µM, 18 h | relative to: DMSO vehicle | inhibition | 12.3%
CC[C@H](C)[C@H](NC(=O)[C@H](Cc1c[nH]c2ccccc12)NC(=O)[C@@H](NC(=O)[C@H](Cc1ccc(O)cc1)NC(=O)[C@@H]1CCCN1C(=O)[C@@H](NC(=O)[C@H](C)N)[C@@H](C)CC)[C@@H](C)CC)C(=O)N[C@@H](Cc1ccc(O)cc1)C(=O)N[C@@H](CCCNC(=N)N)C(=O)N[C@@H](CC(C)C)C(=O)N[C@@H](CC(C)C)C(=O)N[C@@H](CCCNC(=N)N)C(=O)N[C@@H](CCCCN)C(=O)NCC(N)=O |  | PAO1 | 18 h, 37 °C |  | MBC | > 15 µM
COc1cc2ccc3oc([N+](=O)[O-])cc3c2cc1OC | REMA |  |  |  | MIC90 | > 32 µg/mL
CC[C@H](C)[C@H](NC(=O)[C@H](CC(N)=O)NC(=O)[C@H](Cc1ccccc1)NC(=O)[C@H](CCCNC(=N)N)NC(=O)[C@H](CCCNC(=N)N)NC(=O)[C@@H](N)CCCCN)C(=O)N[C@@H](CCCCN)C(=O)N[C@@H](CC(C)C)C(=O)N[C@@H](Cc1c[nH]c2ccccc12)C(=O)N[C@@H](CCCCN)C(=O)N[C@H](C(=O)N[C@@H](Cc1ccccc1)C(=O)O)[C@@H](C)O |  |  |  |  | MBC | 16 µg/mL
CC1(C)S[C@@H]2[C@H](NC(=O)C(C(=O)O)c3ccccc3)C(=O)N2[C@H]1C(=O)O (some centres unmarked) |  | pvdS mutant |  |  | MIC | 25 µg/mL (≈ 66.1 µM)
O=[N+]([O-])c1cc2cc3ccc4oc([N+](=O)[O-])cc4c3cc2o1 | REMA |  |  |  | MIC90 | > 32 µg/mL
O=C(O)CN(CC(=O)O)CC(=O)O |  | VIM-2 and OXA-50 producer | 32 µg/mL, with: meropenem |  | meropenem MIC | 2 µg/mL
Nc1nc2ccc(Oc3ccc(=O)[nH]c3)cc2s1 | pyocyanin production | PA14-lux | 200 µM, 18 h | relative to: DMSO vehicle | inhibition | 7%
COc1ccc2c(ccc3oc([N+](=O)[O-])c(OC)c32)c1 | REMA |  |  |  | MIC90 | > 32 µg/mL
